# Results from different studies.
# Protocols differ between the studies behind these lines. Values joined by “and” are separate records of one study, mostly repeats; a detail may differ.
# Target: Protein kinase C delta type (PRKCD, Homo sapiens, UniProt Q05655)
# Chain of UniProt Q05655 (whole entry, looked up): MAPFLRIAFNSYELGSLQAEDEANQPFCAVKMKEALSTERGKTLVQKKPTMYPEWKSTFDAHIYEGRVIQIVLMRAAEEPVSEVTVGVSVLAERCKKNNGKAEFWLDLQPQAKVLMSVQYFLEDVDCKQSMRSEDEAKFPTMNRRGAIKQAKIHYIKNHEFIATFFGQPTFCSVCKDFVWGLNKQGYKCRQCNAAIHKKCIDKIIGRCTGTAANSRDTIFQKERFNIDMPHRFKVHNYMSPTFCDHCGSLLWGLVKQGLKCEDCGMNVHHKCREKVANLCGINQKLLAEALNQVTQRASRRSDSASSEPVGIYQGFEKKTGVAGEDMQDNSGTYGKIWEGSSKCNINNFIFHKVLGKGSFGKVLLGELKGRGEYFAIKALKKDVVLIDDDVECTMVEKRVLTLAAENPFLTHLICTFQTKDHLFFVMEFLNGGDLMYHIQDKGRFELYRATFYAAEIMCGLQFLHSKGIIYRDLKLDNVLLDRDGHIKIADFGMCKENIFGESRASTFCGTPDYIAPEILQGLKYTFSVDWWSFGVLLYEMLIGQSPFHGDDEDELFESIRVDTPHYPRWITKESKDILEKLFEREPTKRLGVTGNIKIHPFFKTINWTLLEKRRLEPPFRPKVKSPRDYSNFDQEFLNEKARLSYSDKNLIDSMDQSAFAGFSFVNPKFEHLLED
Compound,assay,setting,scale,endpoint,value
C=CC(=O)N1CCCC(n2c(=O)c3ncccc3n(Cc3ccc(Oc4ccccc4)cc3)c2=O)C1 (stereo not shown),"cell-free assay, competition with immobilised ligand",1 µM,,remaining binding,84%
COCC12C(=O)NC3C4(C(OC)CC1O)C1CC5(O)C(OC)C(O)C(OC(C)=O)(C1C5OC(=O)c1ccccc1)C3(O)C(OC)C24 (stereo not shown),"kinase activity, inhibitor, ProQinase kinase profiling",25 µM,reference: control,remaining activity,107% and 105%
NC(=O)[C@@H](O)C[C@H]1CCc2sc3ncnc(O[C@H]4CC[C@H](N5CCOCC5)CC4)c3c21,"enzyme activity, inhibitor",10 µM,,inhibition,3%
O=C=[N][Ru-4]123([n]4c5ccc(O)cc5c5c6c(c7cc(F)c[n+]1c7c54)C(=O)NC6=O)[S+]1CC[S+]2CC[S+]3CC1 (stereo not shown),enzyme activity,"100 nM, human enzyme, with: 10 µM ATP",reference: untreated,remaining activity,88%
C=CC(=O)N1CCc2ccc(-n3c(=O)ccc4cnc5ccc(-c6cnn(C)c6)cc5c43)cc21,KINOMEscan,1 µM,reference: DMSO control,remaining binding,100%
CNC(=O)C[C@H](Cc1ccc(C#N)cc1)NC(=O)c1cc(-c2ccc(CN[C@H](C)c3ccc(C)cc3)o2)ccc1Cl,"enzyme activity, inhibitor",1 µM,,activity vs control,107%
Cc1cnc2nc1Nc1cccc(c1)COC/C=C/COCc1cc(ccc1OCCN1CCOCC1)N2,binding,0.1 µM,,remaining binding,100%
CNC(=O)C1CCN(c2cc(C)c(F)cc2NC(=O)c2ccc(-c3cc(O)ccc3C)c(C)c2)CC1,"binding, competition with immobilised ligand",1 µM,,remaining binding,100%
Nc1ncc2c(n1)-c1c([nH]c3ccc(C4=CCOCC4)cc13)CCC2,"binding, competition with immobilised ligand",1 µM,,remaining binding,100%
O=C(Cc1ccc(OCc2ccccc2)cc1)NC1(C(=O)O)CCN(C(=O)c2ccc(-c3cccc(Cl)c3)cc2)CC1,"enzyme activity, inhibitor",10 µM,,activity vs control,102%
CCN1CCN(Cc2ccc(NC(=O)c3ccc(C)c(NC(=O)c4cncc(-c5cccs5)c4)c3)cc2C(F)(F)F)CC1,"binding, competition with immobilised ligand",1 µM,,remaining binding,14%
COc1cc(Nc2nccc(-c3cnn4nc(OC)ccc34)n2)cc(C(F)(F)F)c1,"binding, competition with immobilised ligand",1 µM,,remaining binding,91%
Cc1c[nH]c2nccc(-c3ccc(C(=O)N[C@@H]4c5c(F)cc(C(F)F)cc5C[C@@H]4O)cn3)c12,"binding, competition with immobilised ligand",3 µM,,remaining binding,14%
